Results collected from several papers.
Every numbered part comes from another study and shows a few of its results, in no order.
Sequence of UniProt O14965 (whole entry, looked up): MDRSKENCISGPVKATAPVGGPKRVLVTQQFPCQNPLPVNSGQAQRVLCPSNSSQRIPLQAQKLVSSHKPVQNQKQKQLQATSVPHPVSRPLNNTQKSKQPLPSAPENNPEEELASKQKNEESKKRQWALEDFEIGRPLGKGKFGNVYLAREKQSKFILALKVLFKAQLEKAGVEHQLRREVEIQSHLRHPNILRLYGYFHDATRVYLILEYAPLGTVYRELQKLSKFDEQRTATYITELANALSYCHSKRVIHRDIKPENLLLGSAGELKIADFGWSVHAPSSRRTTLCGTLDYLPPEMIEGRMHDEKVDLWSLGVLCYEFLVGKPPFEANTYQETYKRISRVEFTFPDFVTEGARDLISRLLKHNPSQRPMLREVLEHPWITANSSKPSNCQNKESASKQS

Study 1
Target: Interferon regulatory factor 1, DNA-binding domain (IRF1, Homo sapiens, UniProt P10914, residues 1-114)
Method: protein-binding microarray
Molecule type: hairpin DNA
Medium: in vitro
Tested at: not given
Setting: whole hairpin DNA, median over replicate spots
Reference: not given
Direction: higher = stronger binding
Target sequence (chain): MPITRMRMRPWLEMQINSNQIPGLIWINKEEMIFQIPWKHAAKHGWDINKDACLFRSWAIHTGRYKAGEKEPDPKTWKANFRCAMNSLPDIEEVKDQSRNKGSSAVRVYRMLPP
Sequence | median fluorescence
GAGGCCCGAAAGCGAACGGCCTCCTGGCCGTTCGCTTTCGGGCCTCACAC (5mC at 17) | 533 a.u.
GAGGCCCGAAAATGAAACGCCTCCTGGCGTTTCATTTTCGGGCCTCACAC | 1130 a.u.
GAGGCCCGCGAGTGAAACGCCTCCTGGCGTTTCACTCGCGGGCCTCACAC | 487 a.u.
GAGGCCGGAAAGCGAAACGCCTCCTGGCGTTTCGCTTTCCGGCCTCACAC (5mC at 40) | 1200 a.u.
GAGGCCCGAAAGCGCGACGCCTCCTGGCGTCGCGCTTTCGGGCCTCACAC (5mC at 15 31) | 534 a.u.
GAGGCCCGAAGGCGAAACGCCTCCTGGCGTTTCGCCTTCGGGCCTCACAC (5mC at 36) | 570 a.u.
GAGGCCCGAAAGCGCAACGCCTCCTGGCGTTGCGCTTTCGGGCCTCACAC (5mC at 15) | 523 a.u.
GAGGCCCGAGAGCGAAACGCCTCCTGGCGTTTCGCTCTCGGGCCTCACAC (5mC at 37) | 514 a.u.

Study 2
Target: Phosphate system positive regulatory protein PHO4, full length, GST-tagged (PHO4, Saccharomyces cerevisiae, UniProt P07270, residues 1-312)
Method: competition protein-binding microarray
Molecule type: double-stranded DNA, one strand shown
Medium: in vitro
Tested at: 2 µM
Setting: whole 60-bp probe, lowest competitor level
With: Cbf1 competitor, 0.05 µM
Direction: higher = stronger binding
All sequences stand within: … GTCTTGATTCGCTTGACGCTGCTG
Residues (chain): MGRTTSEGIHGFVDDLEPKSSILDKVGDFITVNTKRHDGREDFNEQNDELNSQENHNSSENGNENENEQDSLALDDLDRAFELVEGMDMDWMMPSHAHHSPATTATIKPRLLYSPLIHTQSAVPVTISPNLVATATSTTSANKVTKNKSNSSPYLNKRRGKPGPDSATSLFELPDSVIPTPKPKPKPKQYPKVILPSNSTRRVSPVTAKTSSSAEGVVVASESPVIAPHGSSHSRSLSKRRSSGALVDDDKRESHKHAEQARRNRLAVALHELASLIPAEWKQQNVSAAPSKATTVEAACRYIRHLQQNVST
Sequence | fluorescence intensity
TAATTCCAGGTTGAGCGCGTGGCCGCCTATAATCCA | 10300 a.u.
AAGACCGGTGCTTTGACCGTTTCCAATACGGAAAGA | 3410 a.u.
CTCCACCTCGACCATCACGTCCACTTTGCTGCTAAC | 5490 a.u.
AAAGCGGTAATTTGCCCGGTGGGTGCAGATATCTAT | 4050 a.u.
TGCGCAACAACTTGGATCGTGGGTGTATGTCTAGAA | 7770 a.u.
CTAACGAAGGTTTGGGCGGTGGGTGACAAGCCAAGT | 3680 a.u.
TCGTTTCCTAACTGGCACGTCACTTATAACGAGGTG | 6920 a.u.
CATACCCAACCTTGGCAAGTGGGTGAAGATATTTGT | 4890 a.u.

Study 3
Target: PABPC1L2, full length, GST fusion (mouse, UniProt A0ABA7IW68)
Method: RNAcompete
Molecule type: RNA
Medium: in vitro
Tested at: 20 nM
Setting: 7-mer, probes averaged, single round
Reference: mean of 7-mers
Direction: higher = stronger binding
Target sequence (chain): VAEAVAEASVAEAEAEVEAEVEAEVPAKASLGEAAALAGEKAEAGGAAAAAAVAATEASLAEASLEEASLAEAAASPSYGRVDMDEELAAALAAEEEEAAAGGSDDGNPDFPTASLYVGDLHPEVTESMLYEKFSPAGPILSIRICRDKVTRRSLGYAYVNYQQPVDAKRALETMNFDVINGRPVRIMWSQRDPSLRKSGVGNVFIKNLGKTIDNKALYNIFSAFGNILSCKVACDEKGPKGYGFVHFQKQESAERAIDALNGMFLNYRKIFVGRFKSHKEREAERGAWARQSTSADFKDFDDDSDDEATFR
Sequence | 7-mer Z-score
AGGAAGC | 0.0134
GUUCCCA | -0.213
UAAAGAU | 1.12
GGCUCCU | -0.224
UUGUGCC | -0.354
CUCCAGC | -0.291
CAAAACG | 1.09
GUAUGUG | -0.195

Mixed results
Compound | target | observed | mode | tested at | reference | endpoint | result
CCN(CC)CCNC(=O)c1c(C)[nH]c(/C=C2\C(=O)Nc3ccc(F)cc32)c1C | Aurora kinase A (AURKA, Homo sapiens, UniProt O14965) | enzyme activity | inhibitor | 0.5 µM | control | remaining activity | 59.7%

Some of these lines once more (study 2):
Sequence | fluorescence intensity
CTAACGAAGGTTTGGGCGGTGGGTGACAAGCCAAGT | 3680 a.u.
CTCCACCTCGACCATCACGTCCACTTTGCTGCTAAC | 5490 a.u.
